Published values from different studies.
Each numbered part is a random draw from the data of one study; scales do not carry over between parts. Substitutions count along the parent as printed.

Set 1
Organism: Saccharomyces cerevisiae
Observed: binding
Technique: yeast competitive growth sequencing
Form: peptide
Strain: cyclin A1-Cln2 strain
Medium: peptide tiling library
Direction: direction not given
| Sequence | enrichment score |
| --- | --- |
| NFETPEAETPIRSPFK | 0.475 |
| RRVLCFDS | -1.23 |
| PPKPLKKLRFDIEGSD | -0.757 |
| TTTTSPRTPPPLTVQD | 1.26 |
| PPTFLSTGEIHAFLSS | -0.00191 |
| LRRQLSFSED | 0.411 |
| GAEELEDLVHFSVSEL | 2.41 |
| RKLHFEDEVT | -0.0112 |
| GFGFLLFICKLTF | -1.32 |
| LRRKLFLDGNGSIS | -1.42 |
| ARKRLELGNLGNPQ | -1.15 |

Set 2
Target: RNA binding protein fox-1 homolog 2, RRM domain, GST-SBP tag (RBFOX2, Homo sapiens, UniProt O43251-10, residues 100-194)
Technique: RNA Bind-n-Seq
Form: RNA
Medium: in vitro
Tested at: 365 nM
Setting: natural RNA segment, single round, ends assumed
Reference: no-protein control
Direction: higher = stronger binding
All sequences stand within: GGGAGUUCUACAGUCCGACGAUC … UGGAAUUCUCGGGUGCCAA
Construct (chain): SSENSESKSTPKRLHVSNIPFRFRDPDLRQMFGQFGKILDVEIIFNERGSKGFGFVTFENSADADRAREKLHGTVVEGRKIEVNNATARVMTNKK
| Sequence | RBNS enrichment (R) |
| --- | --- |
| GCAGACAGAUGGUGGAUGGUCUGGACAAGAAGCGAGUAAGCCACUGCGGUUGGUCAUACUGAAGGGAAUUGAUGGCAAGAGGAUCCCCUGAGCAAGUCAGAAGUUACUCU | 1.17 |
| UUCUGUGGCACCAUUGAGUACAGGGCCCCAGAGAUUCUAGUGCGCACUGGUCACAACCGGGCAGUGGACUGGUGGAGCCUGGGAGCCCUGAUGUACGACAUGCUCACUGG | 0.432 |
| UACUCCACCUAAUCGUUAUAUCUGGAUAUACCCAUUUUCUGCAUCUUCUUUCUCAACAAUAAAAAAUGUAACUAUUUUGAAUGCCCACAAAUCCCAUUCCAGUGUUACUU | 3.53 |
| AGUCAACAGCAAGAGCAAGAAGCACAUAGGAACUAUACCUGCAACCAAGCUGGCAUAAGAACCAAGACCUUCAAAGCAGCCUGAACUCAAGAUGACAUAUUUUACAAGUU | 0.621 |
| UAAGAGUUGUGCUAGAUGGCUUCCAUGAUCUUGUCAAACCUAGAAAUUCCAAAAUCUCGAGGAAGCUAGAAAACACAAUCCUGUGGCAGUAAGACAUUCUCCAGUGUUCA | 0.211 |
| ACGGUCCAGGGCAAACUGAAAUGUACGCCUGAAUUUUGUAAACAGAAGUAUUAAAUGUCUCUUUCUAAGCCCCUUGCCUCGUCUUGGUGCAGGGGUGGGCCUGCCACCCA | 0.657 |
| CUAAAUCUGGAGUUUUACAAAGAAGGAAACUGUAUCUUUAGGUUAAUCAAAGCUAUGCAUUUCAUAUAGCUUUUUCAUUUAAAACAAGACAAAGAAACAAAUUCCUAUGA | 1.52 |
| CAAUGUCUAGCCAAGAGUUUAGUUAAUGAAGAAUUAAACUGCACUGUUGAUCGGUGCUUUCUGUAAAUACAUCUUAUCGCUUGGGUUGAGAGGGGCCUUAAGAAGGACAG | 0.4 |
| GGACAAAGGUGAUGAAACCAAGAGAGCUCCUGCCUUCUUGCCUGCCUACGUGAACCACCUGGGUCUCCCUUAGCAGGUACCCAGCCCUGAGGUGACUGACCACCUAGGGC | 0.846 |
| AAAUAAAUAUAUAUUUUAAGUUUAAAGACAAAUGAAACCAGACAAAACAAUCCCCAUCAGGUAGUUGUCCAACCCCCAGCUGGGUUCAACCCUCUCAUUACCCACCUGAC | 0.428 |
| AGUGGGUGAGUGGGGAUGACCUGGCUUCCAAGAGGACUGUCACUGUGGACACCAAAAUGGCUUAACUGAGAUACAGUGAAAACAUGACAAAUAAACCAACUUUUUACAAG | 0.294 |
| AUUCAUUAACCCUUUGUAUCUUUGAGUGAAAAUUUUACUCAAAAGUUGCAUCUGGAAGUUCGAAGAAAUUACUUGAAAUAAAAAUAAAGAUUUCUAUAUAGAUAAAACCU | 0.719 |

Set 3
Target: Sal-like protein 4, full length isoform A (SALL4, Homo sapiens, UniProt Q9UJQ4, residues 1-1053)
UniProt Q9UJQ4, sequence (whole entry, looked up): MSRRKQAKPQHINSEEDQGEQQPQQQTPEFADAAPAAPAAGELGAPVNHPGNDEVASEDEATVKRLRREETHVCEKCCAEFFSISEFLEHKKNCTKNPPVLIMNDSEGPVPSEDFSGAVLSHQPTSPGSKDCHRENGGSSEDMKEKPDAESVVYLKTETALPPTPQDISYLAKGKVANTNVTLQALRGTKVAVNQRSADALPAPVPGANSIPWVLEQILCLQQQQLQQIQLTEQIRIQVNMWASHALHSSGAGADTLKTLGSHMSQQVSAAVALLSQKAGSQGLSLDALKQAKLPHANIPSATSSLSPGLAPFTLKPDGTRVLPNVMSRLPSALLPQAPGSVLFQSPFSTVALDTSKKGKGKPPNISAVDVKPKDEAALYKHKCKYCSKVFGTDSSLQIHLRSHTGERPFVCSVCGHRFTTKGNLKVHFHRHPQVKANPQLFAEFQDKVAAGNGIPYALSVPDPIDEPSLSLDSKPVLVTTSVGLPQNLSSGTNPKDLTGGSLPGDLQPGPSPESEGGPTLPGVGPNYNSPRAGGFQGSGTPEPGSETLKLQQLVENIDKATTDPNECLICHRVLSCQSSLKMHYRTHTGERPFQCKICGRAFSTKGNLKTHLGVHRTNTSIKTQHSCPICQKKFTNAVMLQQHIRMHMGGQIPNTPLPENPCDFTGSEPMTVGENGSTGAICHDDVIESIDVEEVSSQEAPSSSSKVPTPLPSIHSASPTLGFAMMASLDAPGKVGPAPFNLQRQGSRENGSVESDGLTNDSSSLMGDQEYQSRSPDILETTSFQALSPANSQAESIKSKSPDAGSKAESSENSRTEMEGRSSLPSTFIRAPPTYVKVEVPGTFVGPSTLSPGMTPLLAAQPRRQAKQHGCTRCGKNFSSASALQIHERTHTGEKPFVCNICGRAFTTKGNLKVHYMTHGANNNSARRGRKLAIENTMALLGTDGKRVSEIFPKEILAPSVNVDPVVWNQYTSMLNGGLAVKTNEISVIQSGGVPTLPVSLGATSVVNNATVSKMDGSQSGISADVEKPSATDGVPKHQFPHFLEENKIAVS
Technique: universal PBM
Form: double-stranded DNA, one strand shown
Medium: in vitro
Tested at: 600 nM
Setting: 8-mer, flanks averaged, mean of replicates
Direction: higher = stronger binding
| Sequence | E-score |
| --- | --- |
| ACCCAGCT | -0.286 |
| AGGTGGAT | -0.0162 |
| GGTCGTCA | 0.00188 |
| AATACAAA | 0.35 |
| GTGGTGAA | -0.0851 |
| TCCAACCA | -0.0174 |
| GCTCGCAA | -0.0432 |
| CGGTTGTA | -0.242 |
| TCCCCGCA | -0.254 |
| ATTTGCAG | 0.182 |
| AGACATTA | 0.139 |
| AACTTAAA | 0.224 |
| CGGGCCGC | -0.441 |
| AGGATCCA | -0.169 |
| AACATCGT | -0.0296 |
| CGCAACAG | 0.0757 |
| GGACAGTA | 0.12 |
| GCTTTCAA | 0.107 |
| TGCCAACA | 0.00864 |
| GGGAGTGA | -0.0515 |
| CCTGTTTA | 0.108 |
| ACCATGGC | -0.0258 |
| TCGATAAA | 0.269 |
| ACTCATCC | 0.0612 |
| TGGCGCCA | -0.36 |

Set 4
Target: RING finger protein unkempt homolog, zinc fingers 1-6, GST-SBP tag (UNK, Homo sapiens, UniProt Q9C0B0, residues 30-357)
Technique: RNA Bind-n-Seq
Form: RNA
Medium: in vitro
Tested at: not given
Setting: RNA with constant flanks, human and mouse sites, ends assumed
Reference: input RNA pool
Direction: higher = stronger binding
All sequences stand within: GGGAGUUCUACAGUCCGACGAUC … CAACAGAGGAUUGAGCAUCA
Target sequence (chain): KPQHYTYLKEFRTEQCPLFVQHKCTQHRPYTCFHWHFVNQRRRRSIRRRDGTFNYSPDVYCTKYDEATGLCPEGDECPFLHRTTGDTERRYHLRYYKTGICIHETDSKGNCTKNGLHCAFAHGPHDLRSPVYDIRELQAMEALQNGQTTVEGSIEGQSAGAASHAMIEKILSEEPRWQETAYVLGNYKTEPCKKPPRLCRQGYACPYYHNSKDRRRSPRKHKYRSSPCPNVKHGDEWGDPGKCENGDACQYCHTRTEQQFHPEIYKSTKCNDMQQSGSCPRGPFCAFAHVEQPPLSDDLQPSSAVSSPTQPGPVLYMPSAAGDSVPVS
| Sequence | bound/input enrichment [ratio] |
| --- | --- |
| GUCUCCUUUUUUGGCCCUAGGCUGGUUAGGAACCUGUACACCUUCACUCUCUCAUCAUUAAAUAGUGGCCUUUUUCAGUAUUUCCUCUCUCCCCUCUAUAAGUUGCUGAAAUCACAAAGC | 1.38 |
| CGGCGCUACACUAGAGCAGAGUACGAGUCUGAGGCGGAGGGAGUAAUGGCAGGACAAGCGUUUAGAAAGUUUCUUCCACUCUUUGACCGAGUAUUGGUUGAAAGGAGUGCUGCUGAAACU | 0.415 |
| AUCUAGGCACUCAAGAUCUCGGAGCAGGCACAGAUUGUCUAGAUCAAGAAGUCGUCAUUCAAGCAUUUCUCCUAGCACACUAACUCUGAAGAGUAGCUUGGCAGCUGAAUUGAACAAGAA | 0.0935 |
| GUGGUUGGGGUGUGAGUGGGCGUUUUCUUAAUGAUAUGCUGCUAGGAUUUCAUGGGCAGCAAUAGCCUAGAAGUCUAUGAUCUAGACUCCAGAUUCCAGAGGGACCUUAAGGUUCCCUUC | 0.249 |
| GUGGCUAUAGAGUCCACACCAAUGAUACUGGAAUCUAGUAUCAUGUCAUCACAUGUUAUGAAAGGAAUUAAUCUAUCCUCUGGUGAUCAAAAUCUUGCUCCAGAGAUUGGCAUGCAGGAG | 0.155 |
| UUGGAGCAGCCAAUAGUCGUGCAGAGCGUGGGCACUGAUGGCCGUGUCUUCCAGUUCCUGGUGCUGCAGUUGAACACCACAGAUCUGGCUUCUAGCGAGGGCGUCAAGAAUUUGGUAUGG | 0.218 |
| AUGCUGAUCCCCGUGAGCAUGUCUGAACUGGAAAAGGUGGAUGGGCUGCUCACCUGCUGCUCAGUUUUAAUUAACAAGAAAGUAGACUCCUGAGCUGCAGAGUCCCCCCCGGUUGCCGGC | 0.0872 |
| CCCGUGUAAACAUUCUUUUUCCAAGGGGGAAAAUGGUGUUAUUUACAUGAAUCGUGAUCAAAUAGCCUCUAAAAACAGUUUUCUAAGCAGGAGGCUCAGUGGAACUCCGAGCUCCGCUCC | 0.196 |
| CAUGGACAUCAUAAAAUGGAACUUCCAGAUUAUAGACAAUGGAAGAUAGAAGGGACACCAUUAGAAACUAUCCAGAAGAAGCUGGCUGCAAAAGGGCUAAGGGAUCCAUGGGGCCGCAAU | 3.72 |
| CAGAGCAGGGAGGAUAGUGACCCUGAGUACCGGGCCAGCAAGUCCAAGCCACUGACCCUACUAGAAUACAACCUUACUAUGGAUACCGCAAAAUUAUUCAUGUCCUGUCUCCACGCCUGG | 0.506 |
| CAGAAAGCUUGACCAAGUUACAUAUUCUAGAGAAUGUCCCGAGUGCCAAGCACGUUUAUACAUAGGGCGUGUAUUCCAGUCUUUUCUGUCAUUCUGUGUGUGUGUGUGUGUACGUAUGUG | 0.262 |

Set 5
Target: ABI1, truncated, D143A, DHFR fusion (Arabidopsis thaliana)
Technique: DHFR PCA, deep sequencing
Medium: yeast
Setting: methotrexate growth selection, single substitutions
Together with: (+)-ABA 58 µM
Reference: wild-type fitted maximum
Direction: higher = stronger binding
Parent: PYL1, truncated, DHFR fusion (Arabidopsis thaliana); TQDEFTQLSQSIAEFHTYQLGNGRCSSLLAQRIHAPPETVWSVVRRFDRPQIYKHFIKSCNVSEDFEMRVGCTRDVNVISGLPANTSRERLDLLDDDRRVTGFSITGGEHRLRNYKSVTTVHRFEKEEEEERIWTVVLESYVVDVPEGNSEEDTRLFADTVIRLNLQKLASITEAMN
| Substitution | relative binding score |
| --- | --- |
| D144C | 43% |
| L166C | 0.502% |
| L156I | 80.6% |
| G23Y | 60.8% |
| T119W | -6.58% |
| N165W | 3.71% |
| A175N | 79.1% |
| K58T | 71.9% |
| D153S | 31.7% |
| F15N | 69.3% |
| A13G | 85.6% |
| L91V | -2.49% |
| S27H | 80.4% |
| C72N | 73.9% |
| L20K | 89.7% |
| I133V | 95.3% |
| L93P | 13% |
| N149R | 16.2% |
| I105A | 29.9% |
| R45C | 31.4% |
| T160R | 61.6% |
| E151L | 78% |
| A30V | 88% |
| D75Q | 85.8% |
| T135A | 67.1% |

Some of these lines once more (set 2):
| Sequence | RBNS enrichment (R) |
| --- | --- |
| GCAGACAGAUGGUGGAUGGUCUGGACAAGAAGCGAGUAAGCCACUGCGGUUGGUCAUACUGAAGGGAAUUGAUGGCAAGAGGAUCCCCUGAGCAAGUCAGAAGUUACUCU | 1.17 |
| UUCUGUGGCACCAUUGAGUACAGGGCCCCAGAGAUUCUAGUGCGCACUGGUCACAACCGGGCAGUGGACUGGUGGAGCCUGGGAGCCCUGAUGUACGACAUGCUCACUGG | 0.432 |
| UACUCCACCUAAUCGUUAUAUCUGGAUAUACCCAUUUUCUGCAUCUUCUUUCUCAACAAUAAAAAAUGUAACUAUUUUGAAUGCCCACAAAUCCCAUUCCAGUGUUACUU | 3.53 |
| AGUCAACAGCAAGAGCAAGAAGCACAUAGGAACUAUACCUGCAACCAAGCUGGCAUAAGAACCAAGACCUUCAAAGCAGCCUGAACUCAAGAUGACAUAUUUUACAAGUU | 0.621 |
| UAAGAGUUGUGCUAGAUGGCUUCCAUGAUCUUGUCAAACCUAGAAAUUCCAAAAUCUCGAGGAAGCUAGAAAACACAAUCCUGUGGCAGUAAGACAUUCUCCAGUGUUCA | 0.211 |
| ACGGUCCAGGGCAAACUGAAAUGUACGCCUGAAUUUUGUAAACAGAAGUAUUAAAUGUCUCUUUCUAAGCCCCUUGCCUCGUCUUGGUGCAGGGGUGGGCCUGCCACCCA | 0.657 |
| CUAAAUCUGGAGUUUUACAAAGAAGGAAACUGUAUCUUUAGGUUAAUCAAAGCUAUGCAUUUCAUAUAGCUUUUUCAUUUAAAACAAGACAAAGAAACAAAUUCCUAUGA | 1.52 |
| CAAUGUCUAGCCAAGAGUUUAGUUAAUGAAGAAUUAAACUGCACUGUUGAUCGGUGCUUUCUGUAAAUACAUCUUAUCGCUUGGGUUGAGAGGGGCCUUAAGAAGGACAG | 0.4 |
| GGACAAAGGUGAUGAAACCAAGAGAGCUCCUGCCUUCUUGCCUGCCUACGUGAACCACCUGGGUCUCCCUUAGCAGGUACCCAGCCCUGAGGUGACUGACCACCUAGGGC | 0.846 |
| AAAUAAAUAUAUAUUUUAAGUUUAAAGACAAAUGAAACCAGACAAAACAAUCCCCAUCAGGUAGUUGUCCAACCCCCAGCUGGGUUCAACCCUCUCAUUACCCACCUGAC | 0.428 |
| AGUGGGUGAGUGGGGAUGACCUGGCUUCCAAGAGGACUGUCACUGUGGACACCAAAAUGGCUUAACUGAGAUACAGUGAAAACAUGACAAAUAAACCAACUUUUUACAAG | 0.294 |
| AUUCAUUAACCCUUUGUAUCUUUGAGUGAAAAUUUUACUCAAAAGUUGCAUCUGGAAGUUCGAAGAAAUUACUUGAAAUAAAAAUAAAGAUUUCUAUAUAGAUAAAACCU | 0.719 |
